# Measured values collected from several papers.
# Compare with care: the assays were run in different laboratories.
# Organism: Pseudomonas aeruginosa
# Technique: broth microdilution
Structure (SMILES),strain,matrix,time,temperature,notes,MIC
CCn1c(-c2ccc(F)cc2)c(-c2ccc(F)cc2)n(CC)c1=[Se],carbapenem-resistant BAA-2108,,24 h,,,> 40 µM
CCCCCCCC(=O)N[C@@H](CCN)C(=O)N[C@H](C(=O)N[C@@H](CCN)C(=O)N[C@H]1CCNC(=O)[C@H]([C@@H](C)O)NC(=O)[C@H](CCN)NC(=O)[C@H](CCN)NC(=O)[C@H](CC(C)C)NC(=O)[C@@H](Cc2cc(F)c(F)c(F)c2)NC(=O)[C@H](CCN)NC1=O)[C@@H](C)O,"PAO1, colistin-susceptible",,,,,< 0.125 µg/mL
CN[C@H](CC(C)C)C(=O)N[C@H]1C(=O)N[C@@H](CC(N)=O)C(=O)N[C@H]2C(=O)N[C@H]3C(=O)N[C@H](C(=O)N[C@H](C(=O)O)c4cc(O)cc(O)c4-c4cc3ccc4O)[C@H](O)c3ccc(c(Cl)c3)Oc3cc2cc(c3O[C@@H]2O[C@H](CO)[C@@H](O)[C@H](O)[C@H]2O[C@H]2C[C@](C)(NCc3ccc(OCc4cn(CCCCC(=O)N[C@H](C(=O)N[C@@H](CCN)C(=O)N[C@H]5CCNC(=O)[C@H]([C@@H](C)O)NC(=O)[C@H](CCN)NC(=O)[C@H](CCN)NC(=O)[C@H](CC(C)C)NC(=O)[C@@H](CC(C)C)NC(=O)[C@H](CCN)NC5=O)[C@@H](C)O)nn4)c(OC)c3)[C@H](O)[C@H](C)O2)Oc2ccc(cc2Cl)[C@H]1O,ATCC 27853,cation-adjusted Mueller-Hinton broth,,,,6 µM
CC[C@H](C)[C@H](NC(=O)[C@@H](CCCNC(=N)N)NC(=O)[C@H](CCCNC(=N)N)NC(=O)[C@H](Cc1ccccc1)NC(=O)[C@H](Cc1c[nH]c2ccccc12)NC(=O)[C@H](CCCNC(=N)N)NC(=O)[C@@H]1CCCN1C(=O)[C@H](CCCNC(=N)N)NC(=O)[C@@H]1CCCN1C(=O)[C@H](CC(C)C)NC(=O)[C@H](Cc1ccc(O)cc1)NC(=O)[C@@H]1CCCN1C(=O)[C@@H]1CCCN1C(=O)[C@H](CCCCN)NC(=O)[C@H](CC(=O)O)NC(=O)[C@@H](N)C(C)C)C(=O)N[C@@H](Cc1ccc(O)cc1)C(=O)N[C@@H](CC(N)=O)C(=O)N[C@H](CCCNC(=N)N)C(N)=O,DSM 1117,,18 h,37 °C,25% MHB2,128 µg/mL
CC[C@H](C)[C@H](NC(=O)[C@H](CCCCN)NC(=O)[C@H](CCCCN)NC(=O)[C@H](Cc1ccccc1)NC(=O)[C@H](Cc1ccccc1)NC(=O)[C@H](CCCCN)NC(=O)[C@H](CCCCN)NC(=O)[C@H](Cc1ccccc1)NC(=O)[C@H](CCCNC(=N)N)NC(=O)[C@@H](N)CCCCN)C(=O)N[C@@H](CCCCN)C(=O)N[C@@H](CCCCN)C(=O)N[C@@H](CO)C(=O)N[C@H](C(=O)N[C@@H](CCCCN)C(=O)N[C@@H](CCCCN)C(=O)N[C@@H](CCCNC(=N)N)C(=O)N[C@H](C(=O)N[C@@H](CCCCN)C(=O)N[C@@H](CCCCN)C(=O)N[C@@H](CC(C)C)C(=O)N[C@@H](Cc1ccccc1)C(=O)N[C@@H](CCCCN)C(=O)N[C@@H](CCCCN)C(=O)N1CCC[C@H]1C(=O)N[C@@H](CCCNC(=N)N)C(=O)N[C@H](C(=O)N[C@H](C(=O)N1CCC[C@H]1C(=O)N[C@H](C(=O)N[C@@H](CO)C(=O)N[C@H](C(=O)N1CCC[C@H]1C(=O)N[C@@H](Cc1ccccc1)C(=O)O)[C@@H](C)CC)[C@@H](C)CC)[C@@H](C)CC)C(C)C)C(C)C)C(C)C,ATCC 27853,,20 h,,,4 µg/mL
CN[C@H](CC(C)C)C(=O)N[C@H]1C(=O)N[C@@H](CC(N)=O)C(=O)N[C@H]2C(=O)N[C@H]3C(=O)N[C@H](C(=O)N[C@H](C(=O)N[C@@H](CCCNC(=N)N)C(N)=O)c4cc(O)cc(O)c4-c4cc3ccc4O)[C@H](O)c3ccc(c(Cl)c3)Oc3cc2cc(c3O[C@@H]2O[C@H](CO)[C@@H](O)[C@H](O)[C@H]2O[C@H]2C[C@](C)(NCc3ccc(OCc4cn(CC(=O)N[C@H](C(=O)N[C@@H](CCN)C(=O)N[C@H]5CCNC(=O)[C@H]([C@@H](C)O)NC(=O)[C@H](CCN)NC(=O)[C@H](CCN)NC(=O)[C@H](CC(C)C)NC(=O)[C@@H](CC(C)C)NC(=O)[C@H](CCN)NC5=O)[C@@H](C)O)nn4)c(OC)c3)[C@H](O)[C@H](C)O2)Oc2ccc(cc2Cl)[C@H]1O,ATCC 35218,cation-adjusted Mueller-Hinton broth,,,,3 µM
CC[C@H](C)[C@H](NC(=O)[C@H](C)NC(=O)[C@@H](NC(=O)[C@H](CC(=O)O)NC(=O)[C@H](CCCCN)NC(=O)[C@H](CO)NC(=O)[C@@H](NC(=O)[C@H](CC(N)=O)NC(=O)[C@H](C)NC(=O)[C@@H](NC(=O)[C@H](CCC(=O)O)NC(=O)[C@H](CCCCN)NC(=O)[C@@H](NC(=O)[C@@H](NC(=O)[C@H](Cc1c[nH]cn1)NC(=O)[C@H](CCCCN)NC(=O)[C@@H](NC(=O)[C@H](CCCCN)NC(=O)[C@H](CCCCN)NC(=O)[C@@H](NC(=O)[C@H](CC(C)C)NC(=O)[C@H](CCCCN)NC(=O)[C@H](CC(N)=O)NC(=O)[C@H](Cc1ccccc1)NC(=O)[C@H](CCCNC(=N)N)NC(=O)[C@H](CCCCN)NC(=O)[C@H](CCCNC(=N)N)NC(=O)[C@H](Cc1ccccc1)NC(=O)CN)C(C)C)C(C)C)[C@@H](C)O)[C@@H](C)CC)[C@@H](C)O)C(C)C)C(C)C)C(=O)N[C@H](C(=O)N[C@@H](C)C(=O)NCC(=O)N[C@@H](CO)C(=O)NCC(=O)N[C@H](C(=O)N[C@@H](C)C(=O)N[C@H](C(=O)NCC(=O)N[C@@H](C)C(=O)N[C@@H](C)C(=O)N[C@@H](CCSC)C(N)=O)C(C)C)C(C)C)C(C)C,RKI 93/12,CAMHB with 10% mouse serum,,,150 mM NaCl,128 µg/mL
CC[C@H](C)[C@H](NC(=O)[C@@H](CCCNC(=N)N)NC(=O)[C@H](CCCNC(=N)N)NC(=O)[C@@H]1CCCN1C(=O)[C@@H]1CCCN1C(=O)[C@H](Cc1ccccc1)NC(=O)[C@@H]1CCCN1C(=O)[C@H](CCCNC(=N)N)NC(=O)[C@@H]1CCCN1C(=O)[C@H](CC(C)C)NC(=O)[C@H](Cc1ccc(O)cc1)NC(=O)[C@@H]1CCCN1C(=O)[C@@H]1CCCN1C(=O)[C@H](CCCCN)NC(=O)[C@H](CC(=O)O)NC(=O)[C@@H](N)C(C)C)C(=O)N[C@@H](Cc1ccc(O)cc1)C(=O)N[C@@H](CC(N)=O)C(=O)N[C@H](CCCNC(=N)N)C(N)=O,DSM 1117,,18 h,37 °C,25% MHB2,> 128 µg/mL
CC(C)C[C@@H]1NC(=O)[C@H](CCCCN)NC(=O)CNC(=O)[C@H]2CCCN2C(=O)[C@H](CCCCN)NC(=O)[C@H](CC(C)C)NC(=O)[C@H](CCCCN)NC(=O)[C@H](CC(C)C)NC(=O)[C@H](CCCCN)NC(=O)C(N)CCC=CCCC(C(N)=O)NC(=O)[C@H](CCCCN)NC(=O)[C@H](CC(C)C)NC(=O)[C@H](CCCCN)NC1=O (stereo partly shown),ATCC 9027,Mueller-Hinton broth,18 h,37 °C,,8 µM
CC(C)C[C@@H]1NC(=O)[C@@H](CC(C)C)NC(=O)[C@H](CCN)NC(=O)[C@@H](NC(=O)[C@H](CCN)NC(=O)[C@@H](NC(=O)CCOCCOCCOCCN=[N+]=[N-])[C@@H](C)O)CCNC(=O)[C@H]([C@@H](C)O)NC(=O)[C@H](CCN)NC(=O)[C@H](CCN)NC1=O,ATCC 27736,cation-adjusted Mueller-Hinton broth,,,,55 µM
